Published values from different studies.
Compare with care: the assays were run in different laboratories. ± gives the spread as reported.

SMILES	target or system	test	system	conditions	how to read	endpoint	value
Cc1cc(Nc2ccc(S(F)(F)(F)(F)F)cc2)n2nc(C(C)(F)F)nc2n1	Plasmodium falciparum		P. falciparum malaria patients	oral, 250 mg		patients with eye disorders	0%
COc1cc2c(c(O)c1OC)C(=O)c1c(cc(C)c(O[C@@H]3O[C@H](CO)[C@@H](O)[C@H](O)[C@H]3O)c1OC)C2=O	HepaRG co-cultured with HK-2	MTT		266.67 µM, 24 h	baseline: untreated control	cell viability	37.2 ± 4.93%
CC1(C)CN(C(=O)Cn2c(=O)c(C(=O)NCc3ccc(Cl)cc3)cc3nccnc32)C1	human cytomegalovirus		MRC-5, AD169-GFP		baseline: CC50 over EC50	selectivity ratio	> 19.4
Cc1c2oc3c(C)ccc(C(=O)N[C@@H]4C(=O)N[C@H](C(C)C)C(=O)N5CCC[C@H]5C(=O)N(C)CC(=O)N(C)[C@@H](C(C)C)C(=O)O[C@@H]4C)c3nc-2c(C(=O)N[C@@H]2C(=O)N[C@H](C(C)C)C(=O)N3CCC[C@H]3C(=O)N(C)CC(=O)N(C)[C@@H](C(C)C)C(=O)O[C@@H]2C)c(N)c1=O		LC-MS	children with cancer, plasma	dose not given, 5 min post dose		median plasma concentration	128 µg/L
COc1c(O)cc2c(c1O)C(=O)c1c(cc(C)c(O)c1OC)C2=O	HepaRG co-cultured with HK-2	MTT		133.33 µM, 48 h	baseline: untreated control	cell viability	18.2 ± 4.25%
CC1(F)CN(C(=O)Cn2c(=O)c(C(=O)NCc3ccc(Cl)cc3)cc3nc(N4CCCC4=O)cnc32)C1	human cytomegalovirus		MRC-5, AD169-GFP		baseline: CC50 over EC50	selectivity ratio	93.8
O=C(O)C[C@H](O)C[C@H](O)/C=C/c1c(C2CC2)nc2ccccc2c1-c1ccc(F)cc1	COS-7			30 µM, 24 h, 0.1% DMSO, unit not given	baseline: vehicle control	confluence	0.66 ± 0.07
COc1c(O)c(C)cc2c1C(=O)c1c(cc(O)c(O)c1O)C2=O	HepaRG co-cultured with HK-2	MTT		16.67 µM, 24 h	baseline: untreated control	cell viability	66.7 ± 10.4%
Clc1ccc(C(c2c[nH]c3ccccc23)c2c[nH]c3ccccc23)cc1	COS-7	WST-8		10 µM, 24 h, 0.1% DMSO, unit not given	baseline: vehicle control	metabolic activity	0.16 ± 0.01
NC(=O)c1ccc(I)c([N+](=O)[O-])c1	OCI-Ly1			0.1 µM, 120 h		viability	195%
C=C1C(=O)O[C@@H]2C[C@@]3(C)CCCC(=C)[C@@H]3C[C@H]12	COS-7			10 µM, 24 h, 0.1% DMSO, unit not given	baseline: vehicle control	apoptotic cells	0.47 ± 0.12
Cc1cc(O)c2c(c1)C(=O)c1cc(O)cc(O)c1C2=O	HepaRG co-cultured with HK-2	MTT		133.33 µM, 48 h	baseline: untreated control	cell viability	27.3 ± 3.11%
COCCOCc1ccc(-c2cc3onc(-c4ccccc4)c3c(=O)n2C)cc1	COS-7			3 µM, 24 h, 0.1% DMSO, unit not given	baseline: vehicle control	necrotic cells	0.92 ± 0.14
CCc1cc(C(=O)NC)c2nccc(N3CCc4c(cc(Cn5ccnc5)cc4-c4cn(C)nc4C(F)(F)F)C3=O)c2c1			Sprague Dawley rat, male, plasma	oral, 50 mg/kg once daily, 7 days, toxicokinetic satellite group		AUC extrapolated fraction	0.1%
COc1c(O)c(C)cc2c1C(=O)c1c(O)cccc1C2=O	HepaRG co-cultured with HK-2	MTT		266.67 µM, 24 h	baseline: untreated control	cell viability	35.8 ± 16.4%
CN(C)C(=O)CCc1nc(-c2ccccc2)c(-c2ccccc2)o1	COS-7			50 µM, 24 h, 0.1% DMSO, unit not given	baseline: vehicle control	confluence	0.93 ± 0.06
NC(=O)c1cccnc1	OCI-Ly1			0.5 µM, 120 h		viability	138%

A few entries again:
SMILES	target or system	test	system	conditions	how to read	endpoint	value
COCCOCc1ccc(-c2cc3onc(-c4ccccc4)c3c(=O)n2C)cc1	COS-7			3 µM, 24 h, 0.1% DMSO, unit not given	baseline: vehicle control	necrotic cells	0.92 ± 0.14
